Measurements from different studies.
Parts stem from different laboratories: compare values within a part only.

Study 1
Target: RNA binding protein fox-1 homolog 2, RRM domain, GST-SBP tag (RBFOX2, Homo sapiens, UniProt O43251-10, residues 100-194)
Method: RNA Bind-n-Seq
Molecule type: RNA
Matrix: in vitro
Concentration: 365 nM
Notes: natural RNA segment, single round, ends assumed
Reference: no-protein control
Reading: higher = stronger binding
Target sequence (chain): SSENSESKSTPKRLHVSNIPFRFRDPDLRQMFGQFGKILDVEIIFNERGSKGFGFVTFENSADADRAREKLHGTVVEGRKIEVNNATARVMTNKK
| Sequence | RBNS enrichment (R) |
| --- | --- |
| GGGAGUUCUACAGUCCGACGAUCUUGGGAGCCCCUGCCAGCCACCUGCACCUGUGGACAGUGGGUGGGGGCACUACUCCCCACUCAGAGCACAAAUGCAACUCCUUCCCCUACAAUCCCAUCCUGAGCCAUUGUGGAAUUCUCGGGUGCCAA | 0.948 |
| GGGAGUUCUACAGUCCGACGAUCUUCCUUAACUCUAGGUUUGUAGUCUGUUUUAAAUUAGGAUUAGUUCCUGCAUUCUGAAAUACAUUGGCCUAGAACAUUUUAUCCCAGGCAUUUUUGAAUAGAAAACAGUUUGGAAUUCUCGGGUGCCAA | 0.334 |
| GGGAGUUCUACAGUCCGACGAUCAAAUCUGCACCUCUCUCUAUUUUAUUUGCCAGGGGCACGAUGUGACAUAUCUGCAGUCCCAGCACAGUGGGACAAAAAGAAUUUAGACCCCAAAAGUGUCCUCGGCAUGGUGGAAUUCUCGGGUGCCAA | 0.534 |
| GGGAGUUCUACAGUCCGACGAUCAAUAGUAUGGGGUAAGUACCCUACCUCUUAUAAAGGGCAAAAUGGAAAAGAAGUUUUCUUACAAACCAAAGGGCUUUAGGGAGGACGUUAGGGUUAUAGCUGUGGACUGAUGGAAUUCUCGGGUGCCAA | 0.463 |
| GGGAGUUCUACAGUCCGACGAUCGAACCUGCUGCUUUGUUUUCUGAGAAGAGGUUUGAAGACAUUUUAUUAACAGCUUAAUUUUUCUCUUUUACUCCAUAGGAACUUAUUUUAAUAGUAACAUUAACAACAAGUGGAAUUCUCGGGUGCCAA | 0.696 |
| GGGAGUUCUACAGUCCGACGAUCGUUCUCCUUCUGUGAGCAUGGAGUUGAAUGGAAUGCCCACCAGGCCGAGUCUUCUUAGAUGACUGAGCACUGCUUGAUGUUGUGUUUUGAAUAAUUUAAUCUGUACAAUAUGGAAUUCUCGGGUGCCAA | 0.408 |
| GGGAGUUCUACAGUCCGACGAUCGGCUUCGUGUGCCUGUUGGACCAUUAGUUCUUUUAACUGUAUAUGCAAUAACAAGGUUUUAAAAGAUAAUAAUAAAGAGGAAACACGACUAUUGGACAAAGUAUUUAUGUUGGAAUUCUCGGGUGCCAA | 1.03 |
| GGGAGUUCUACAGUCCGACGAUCUCUCUUUCGUGCUGCAUGCACAUUUAUCCAACACUCACGGGUUGUUUGGGAAAAAGUACCAGCAAUGAUGUCGAUGUUAAUAAUACUUCAUAAUUGAUAUCUUAUAGCUUUGGAAUUCUCGGGUGCCAA | 0.558 |
| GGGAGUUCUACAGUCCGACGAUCUUCCCAGGGACGUCGCGCCUUGUUUCUCCUCCCUCUCUGUGUCUGGGGAGGAGGAGCUGAGUCCUGACUCUGUGCUCCUGUUAGGCAGGGCCUCUGGGAAGAGGAGAAAUUGGAAUUCUCGGGUGCCAA | 0.616 |
| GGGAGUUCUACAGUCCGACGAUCUGUGGCGCUUUAGGGUGCUGGACUGUAUGGCUGAGGGCUGGUUGGGUUCCUCUAUUGGCUCUGCUCAAAUGUUGCAGGAUACAUAGCCCCAAAGAUGGUCUAGGAGCAAUUGGAAUUCUCGGGUGCCAA | 0.885 |
| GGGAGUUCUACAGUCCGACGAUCACAGACACACAUCCCUUCCCGCCUCCCCCCUGCCUUCAGUAGGAUCUGGCUCCGUGGCUGGAGGACCAACCCCUAUAGUGGGAAUGCAGAGCUUAACGUGUACUGCUUGUUGGAAUUCUCGGGUGCCAA | 0.435 |
| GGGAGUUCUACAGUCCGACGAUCGCCCUAGUGCUUCCAUCUGAUGGGGUGACCACACCCCUCACAUUCCACAGGCCUGAUUUUUAUAAAAAACUACCAAUGCUGAUCAAUAAAGUGGGUUUUUUUUAUAGCUUUGGAAUUCUCGGGUGCCAA | 0.339 |

Study 2
Target: Interferon regulatory factor 5, full length, phosphomimetic (IRF5, Homo sapiens, UniProt Q13568-2, residues 1-514, S451D/S453D/S456D/S462D)
Method: protein-binding microarray
Molecule type: double-stranded DNA, one strand shown
Matrix: in vitro
Concentration: 940 nM top
Notes: 60-bp whole probe
Together with: salmon DNA 0.4 mg/ml
Reference: random background probes
Reading: higher = stronger binding
Constant ends, left off below: GCCTAGCAC … GTCTTGATTCGCTTGACGCTGCTG
| Sequence | fitted relative affinity [z-score] |
| --- | --- |
| TTAGGTTTCCTACTGCTTTGGTGCTAG | 0.651 |
| TTAGATTTCAGACTGGAATAGTGCTAG | -0.143 |
| TTAGGACTGGAATATCGGTTAGTGCTA | -0.151 |
| GACGGTTTCCTTCTCCTGATGTGCTAG | 1.58 |
| TCACATCGTAAGCAAAAACTGTGCTAG | -0.0786 |
| AGGATCCTGGGAGGGAGAGCGTGCTAG | -0.103 |
| TTGGGTTTCCTTTTCCTTTAGTGCTAG | 1.64 |
| TTAGCACTGGGACTGGGTTAGTGCTAG | -0.293 |
| TGGTCTCTAGTTAGAGAACTGTGCTAG | 1.18 |
| TCATACCTGAATATCTTACTGTGCTAG | 0.335 |
| AAAATTTTAACCCTTATTCTGTGCTAG | 0.502 |
| TTGGGACTGGACTTTCGGTTAGTGCTA | 2.61 |
| TTAGATCTCAGTCACGATTAGTGCTAG | 0.547 |
| GCCTTTTTTTTTTTTTCTGAGTGCTAG | 1.61 |
| TTAGGTTTCCTTTCCCTCTAGTGCTAG | 2.53 |

Study 3
Target: Centromere-binding protein 1, full length, His-tagged (CBF1, Saccharomyces cerevisiae, UniProt P17106, residues 1-351)
Sequence of UniProt P17106 (whole entry, looked up): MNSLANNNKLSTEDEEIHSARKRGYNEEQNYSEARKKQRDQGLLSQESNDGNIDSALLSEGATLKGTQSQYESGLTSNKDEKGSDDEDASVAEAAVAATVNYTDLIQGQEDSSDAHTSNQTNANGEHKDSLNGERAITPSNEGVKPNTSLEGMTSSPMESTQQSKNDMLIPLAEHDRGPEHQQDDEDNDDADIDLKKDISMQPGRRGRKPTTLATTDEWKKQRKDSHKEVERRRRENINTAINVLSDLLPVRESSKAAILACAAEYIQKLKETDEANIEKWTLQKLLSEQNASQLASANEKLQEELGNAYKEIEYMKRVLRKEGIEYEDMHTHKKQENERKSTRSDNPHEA
Method: competition protein-binding microarray
Molecule type: double-stranded DNA, one strand shown
Matrix: in vitro
Concentration: 2 µM
Notes: whole 60-bp probe, lowest competitor level
Together with: Pho4 competitor, 0.05 µM
Reading: higher = stronger binding
| Sequence | fluorescence intensity |
| --- | --- |
| CGTCCTAGTGATTGGATTGTGGGTGCCATGAGGAAGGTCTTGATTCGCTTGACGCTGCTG | 88.8 a.u. |
| AAAGCGGTAATTTGTATGGTGGGTGCAGATATCTATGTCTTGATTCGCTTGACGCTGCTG | 64.2 a.u. |
| CAGCATTGCTACAGACACGTGAGTAATGCATTGTGTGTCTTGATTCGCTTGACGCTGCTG | 1670 a.u. |
| TGCGCAACAACTTGATCGGTGGGTGTATGTCTAGAAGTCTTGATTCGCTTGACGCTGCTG | 55.6 a.u. |
| CAATGAAAGTGAAAGCACGTGTCGGATTGTCAACAAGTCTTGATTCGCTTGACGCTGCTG | 1770 a.u. |
| AAATTACTAAGTTGGAACGTGGGTGACGCCGTATGAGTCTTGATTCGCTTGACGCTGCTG | 88.7 a.u. |
| CGTCCGAGAGCCCGCGACCTGATCCGACTTCAGGGTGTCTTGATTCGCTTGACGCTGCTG | 48.3 a.u. |
| CGGCTCCCGCTCGGCCTCGTGACTCCCGCGGAGACCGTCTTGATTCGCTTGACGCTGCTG | 462 a.u. |
| AGAAATGAGTGGAAGCGCGTGGAAGCCCGTCTAGCAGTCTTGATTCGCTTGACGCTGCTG | 52.8 a.u. |
| AAATTACTAAGTTGAGTGGTGGGTGACGCCGTATGAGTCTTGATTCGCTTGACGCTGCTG | 64.2 a.u. |
| TAATAGGCCTGCTGGCACGTTGTTGAATGGCAGATGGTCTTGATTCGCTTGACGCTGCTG | 114 a.u. |
| CTTCTGTAAATTTGCCGTGTGGGTGGACGCGCCCCGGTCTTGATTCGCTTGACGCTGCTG | 67.4 a.u. |
| AGACAAGGCAACAAAGAAATGTCGTTTTTAATTTTTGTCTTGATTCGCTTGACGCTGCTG | 84.5 a.u. |
| CCACAAGGAATTTGGAACGTGCCGACGTTACTATTGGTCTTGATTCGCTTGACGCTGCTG | 104 a.u. |
| ACTTACTACAAGCTCAACGTGACTCGTTTGGTGTTCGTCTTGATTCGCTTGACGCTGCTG | 668 a.u. |
| CGGGGTTAAGTTTGATCAGTGGGTGGCTTGCAGCAGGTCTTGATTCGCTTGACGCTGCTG | 76.9 a.u. |
| CTAACGAAGGTTTCTCACGTGTTTTACAAGCCAAGTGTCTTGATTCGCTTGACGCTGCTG | 1520 a.u. |
| AGAAAAAAATCATCAAATGTGACGGGCAAATGGGGCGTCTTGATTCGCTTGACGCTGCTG | 76.9 a.u. |
| TGGCCGTATCGCTCCATACGAGCCAATCAGGGCCCCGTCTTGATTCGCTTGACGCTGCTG | 46.8 a.u. |

Study 4
Target: Ras GTPase-activating protein-binding protein 1, full length (G3BP1, Homo sapiens, UniProt Q13283)
Sequence of UniProt Q13283 (whole entry, looked up): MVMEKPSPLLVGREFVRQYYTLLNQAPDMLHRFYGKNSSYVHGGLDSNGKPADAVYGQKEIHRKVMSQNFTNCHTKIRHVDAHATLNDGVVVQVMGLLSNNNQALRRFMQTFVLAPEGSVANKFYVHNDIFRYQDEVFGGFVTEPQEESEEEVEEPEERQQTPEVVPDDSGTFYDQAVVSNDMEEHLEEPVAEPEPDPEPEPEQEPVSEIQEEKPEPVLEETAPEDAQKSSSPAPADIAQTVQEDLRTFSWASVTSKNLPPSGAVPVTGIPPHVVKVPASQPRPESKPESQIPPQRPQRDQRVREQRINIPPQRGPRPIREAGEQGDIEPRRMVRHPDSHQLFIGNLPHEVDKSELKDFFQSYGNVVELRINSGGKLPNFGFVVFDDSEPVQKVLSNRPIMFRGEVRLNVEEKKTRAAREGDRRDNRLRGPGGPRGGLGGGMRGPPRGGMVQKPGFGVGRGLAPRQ
Method: RNA Bind-n-Seq
Molecule type: RNA
Matrix: in vitro
Concentration: 200 nM
Notes: whole 134-nt RNA, ends assumed
Together with: 150 mM LiCl
Reference: input library
Reading: higher = stronger binding
Each molecule: 7-deaza-guanosine replaces G
| Sequence | log2 enrichment |
| --- | --- |
| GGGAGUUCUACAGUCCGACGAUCAAGUCCUGUGCUACACAUCGUAUGUACCGAAUCGGGGUUUGGGGUUUGGGGUGGGGAAAGUAUUAUGUUACGCCGUUCGGAUCUGCACUUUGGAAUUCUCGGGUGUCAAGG | -0.254 |
| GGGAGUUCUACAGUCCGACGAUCCACAGACAACACGCACCCACACAGACACAGAGGGAAGGGGUUGGGAAAAGGACAGGGUGCACAGCAGGGCGGGGUAGGACCCCAGCCCCUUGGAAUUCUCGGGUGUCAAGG | 0.223 |
| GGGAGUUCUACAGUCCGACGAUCAGUCCUGUGCUACACAUCGUAUGUACCGAAUCGGGAAAGGGUUUGGGAAAAAAAGGGAAAGUAUUAUGUUACGCCGUUCGGAUCUGCACUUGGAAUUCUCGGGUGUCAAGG | -1.82 |
| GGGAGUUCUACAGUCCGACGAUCUCCUCAAGUCCUGUGCUACACAUCGUAUGUACCGAAUCGGCGGCGGGGCGGGAAAGUAUUAUGUUACGCCGUUCGGAUCUGCACUUCCAGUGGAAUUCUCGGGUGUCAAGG | 0.942 |
| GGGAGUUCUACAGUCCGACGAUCAGUCCUGUGCUACACAUCGUAUGUACCGAAUCAAACCCCCAAAUUUUUAAACCCAAAAAAGUAUUAUGUUACGCCGUUCGGAUCUGCACUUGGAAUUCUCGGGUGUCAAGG | 1.68 |
| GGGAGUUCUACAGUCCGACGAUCCCUGUGCUACACAUCGUAUGUACCGAAUCGGAAAAAAAGGGGAAAAAAAGGAAAAAAAGGGAAAGUAUUAUGUUACGCCGUUCGGAUCUGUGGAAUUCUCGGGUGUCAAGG | 0.0661 |

Some of these lines once more (study 3):
| Sequence | fluorescence intensity |
| --- | --- |
| CTTCTGTAAATTTGCCGTGTGGGTGGACGCGCCCCGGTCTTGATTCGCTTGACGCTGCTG | 67.4 a.u. |
| AGACAAGGCAACAAAGAAATGTCGTTTTTAATTTTTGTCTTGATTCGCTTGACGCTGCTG | 84.5 a.u. |
| CCACAAGGAATTTGGAACGTGCCGACGTTACTATTGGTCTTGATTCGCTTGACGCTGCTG | 104 a.u. |
| ACTTACTACAAGCTCAACGTGACTCGTTTGGTGTTCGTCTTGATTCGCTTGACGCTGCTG | 668 a.u. |
| CGGGGTTAAGTTTGATCAGTGGGTGGCTTGCAGCAGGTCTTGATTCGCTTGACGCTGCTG | 76.9 a.u. |
| CTAACGAAGGTTTCTCACGTGTTTTACAAGCCAAGTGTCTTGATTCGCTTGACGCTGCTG | 1520 a.u. |
| AGAAAAAAATCATCAAATGTGACGGGCAAATGGGGCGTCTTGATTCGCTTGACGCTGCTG | 76.9 a.u. |
